Experimental data from different studies.
A part holds a random share of what one study measured. Substitutions count along the parent as printed.

Study 1
Target: RNA binding protein fox-1 homolog 2, RRM domain, GST-SBP tag (RBFOX2, Homo sapiens, UniProt O43251-10, residues 100-194)
Method: RNA Bind-n-Seq
Form: RNA
Sample: in vitro
Concentration: 365 nM
Setting: natural RNA segment, single round, ends assumed
Baseline: no-protein control
Reading: higher = stronger binding
Residues (chain): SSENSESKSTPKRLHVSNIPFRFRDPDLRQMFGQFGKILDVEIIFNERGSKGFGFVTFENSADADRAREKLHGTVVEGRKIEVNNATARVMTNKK
Under “RBNS enrichment (R)”, `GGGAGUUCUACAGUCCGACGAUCGCAAUGGUUGUCAGCUUCCUCUGAAGACCGAGCUUGACGCCUCCAUGCCAGCUGCCGUUGGAGACGCAAAGCCAAGCAAGGGUCAGGAGGGAAGCUGGCCCGGCUGACUGUGGAAUUCUCGGGUGCCAA` is recorded as 0.394.
`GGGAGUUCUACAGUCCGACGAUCGGCUGCUCAAUCGACACCCCGAGUUCUCAUGACUGGGAAGAUAGUUUUCUUCAGGUGUCAAUGGCGUUAGACUCCCAGGAAGACUAGCCCUGCCCACAGGGCCACCUGUUUGGAAUUCUCGGGUGCCAA`: “RBNS enrichment (R)” 0.404.
Under “RBNS enrichment (R)”, `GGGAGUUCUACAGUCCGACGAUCCAGCCAUCUGCUCCUGCAGCGUGCAGCUUUGGAUUGUUUGUGCAGAAAACAGCAAGCGAUGGCUGAUAAAUCUUAUCUUGCCAGAGGUAGUUUUUGAACAAGAAAAAGAAUGGAAUUCUCGGGUGCCAA` is recorded as 0.496.
`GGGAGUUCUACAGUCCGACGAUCCUCAGCCUCAGUGUCCCGAGGGCCCCGAAGCAUUCCAUUCUCGUGGAGGAGUUUCCUUGCUGAGAUUUCAAAUAGUCCUCCCCACCUCAACUGUCACCACUGCUAAGGGAUGGAAUUCUCGGGUGCCAA`: “RBNS enrichment (R)” 0.311.
Under “RBNS enrichment (R)”, `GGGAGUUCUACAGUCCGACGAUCCUCUUCUUUCCUGGGGCAAGCCAGGAGCUCUCAACAGAGGGAGGACUGGAGGGCAGAUGGAGAAAGCUGUCCAAGCCUGUCACUAGGCAUGUGGGUUAGACCAGGUUAGAUGGAAUUCUCGGGUGCCAA` is recorded as 9.54.
Under “RBNS enrichment (R)”, `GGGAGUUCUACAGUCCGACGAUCUUCAUCAGAACCCUAAAAUGGUCGUUGAAGGCGCCUGGGCCGCAGCCCAGCAGUAGUUGGAGAGGCAGGCAGAGGGCAGUGGUUCUCCCAAAUAGGAGACCUGGGGCCUGUGGAAUUCUCGGGUGCCAA` is recorded as 0.314.
`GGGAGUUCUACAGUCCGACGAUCUCUCUCUACCCAGUGGGCGCUGCUGUUAAGGGGCCAUCUGCUGAAAACGUUUCCCCAGGCCCUGCUGUCUGCCAGGAGUGCCAAGUGUCAACUGUUUACACACAAACUGCUGGAAUUCUCGGGUGCCAA` — result for “RBNS enrichment (R)”: 0.342.
Under “RBNS enrichment (R)”, `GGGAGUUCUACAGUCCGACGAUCAGUGUCCCACCCCUGGAGGGUUAAUCCCUAUCUCUUCCUUUUGACCCCUGACUUGUUCUGGCAAGGAACAGAAGUAAGGGUGUGAUCCAGCCCGUCCCCCUGGGACCCAUUGGAAUUCUCGGGUGCCAA` is recorded as 0.338.
For `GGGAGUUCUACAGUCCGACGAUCUUUAAAAAGUGACUGUUAGAACUUUUUUAGCUCUGAGUAGUGGUCCCUUUUUAAACUCCUGGAAACAUUUUUGUUACCAAAUAAAUCAUGUUUUAUGGUACUCAGCCAUCUGGAAUUCUCGGGUGCCAA`, “RBNS enrichment (R)” read 0.83.
`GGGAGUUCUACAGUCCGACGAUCUUGAGGUUGAGCCUUUUUGAGUAUUUAAGAUAUAUAUACCAACGAAACUAUUCUCGCAAGGAAAACAUUGCCACCAUUUGUAGAACAUGUAAUCUUCAAGUAUGUGCUAUUGGAAUUCUCGGGUGCCAA` — result for “RBNS enrichment (R)”: 0.584.
`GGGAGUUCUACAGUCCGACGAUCAAGCUGUGACAAUCAGAAAUGUCUCUUAGACAUUUCCAAAUGUCCCCUGGGGCAUGGGAGGGUUUCACAAAAUUGCCCACUUGUUAAGGACCCUGACUCUAAUACCACACUGGAAUUCUCGGGUGCCAA` — result for “RBNS enrichment (R)”: 0.334.
Under “RBNS enrichment (R)”, `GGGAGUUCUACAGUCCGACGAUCUGCUGACUGUCAGGAGCAAAACUUGAAGGUGUGGCACCGCAGGACUGGAAGAGAGUGGAACACCUUGGGUCCUGCCUGUUCAGGGUACUGAGGCCAAGAUGAGAAGUGACUGGAAUUCUCGGGUGCCAA` is recorded as 0.729.

Study 2
Target: Sal-like protein 4, full length isoform B (SALL4, Homo sapiens, UniProt Q9UJQ4-2, residues 1-616)
Method: universal PBM
Form: double-stranded DNA, one strand shown
Sample: in vitro
Concentration: not given
Setting: 8-mer, flanks averaged, mean of replicates
Reading: higher = stronger binding
`TATAAACA` gave an E-score of 0.37.
`ACGATGGC` has an E-score of -0.0309.
For `GCGCTTCA`, the E-score was -0.0963.
The E-score of `CCGTTAGC` is reported as -0.07.
The E-score of `ACGATTCG` is reported as -0.0354.
`CATGCCCG` gave an E-score of -0.181.
For `ACTCTACG`, the E-score was -0.096.
`GCTGCCCC` has an E-score of -0.326.
For `CGAATTCA`, the E-score was -0.0121.
For `CACCGGAC`, the E-score was -0.376.
`ATAGCTTA` has an E-score of 0.203.
For `GGCAGCAC`, the E-score was -0.19.
With `AAATCACC` the E-score was 0.0809.
The E-score of `CCTGCGGA` is reported as -0.259.
With `CCTGAGCG` the E-score was -0.239.
The E-score of `ATATGCGC` is reported as 0.174.
For `ATGCTGAC`, the E-score was 0.0459.
The E-score of `ACCAAGAT` is reported as 0.0946.

Study 3
Target: CCNE2, cyclin fold, Cln2 fusion (human)
Method: yeast growth competition, sequencing
Sample: yeast
Setting: strong parent motif
Baseline: not given
Reading: higher = stronger binding
Parent: BRCA2 docking peptide (human); PSIKRNLLNEFDR; partner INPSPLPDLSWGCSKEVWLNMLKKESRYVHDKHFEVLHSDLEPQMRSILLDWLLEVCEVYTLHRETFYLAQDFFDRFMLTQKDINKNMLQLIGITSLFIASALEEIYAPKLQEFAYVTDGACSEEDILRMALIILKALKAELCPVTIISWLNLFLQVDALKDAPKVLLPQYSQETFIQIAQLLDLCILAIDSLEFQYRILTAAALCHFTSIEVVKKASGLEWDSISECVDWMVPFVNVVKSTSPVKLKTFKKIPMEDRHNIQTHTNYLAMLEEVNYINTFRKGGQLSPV
For `PSIKRNLLNEFDA [R13A]`, “normalised enrichment score” read 1.72.
`ESIKRNLLNEFDR [P1E]`: “normalised enrichment score” 2.48.
Under “normalised enrichment score”, `PSIKRGLLNEFDR [N6G]` is recorded as -0.504.
For `PSIKRNLSNEFDR [L8S]`, “normalised enrichment score” read 1.18.
For `PSIKRNGLNEFDR [L7G]`, “normalised enrichment score” read 0.0192.
`PSIKRNLLNESDR [F11S]` — result for “normalised enrichment score”: -1.42.
`PSLKRNLLNEFDR [I3L]` — result for “normalised enrichment score”: 0.172.
Under “normalised enrichment score”, `WSIKRNLLNEFDR [P1W]` is recorded as 1.91.
`PSIKRNLLNGFDR [E10G]`: “normalised enrichment score” 0.598.
Under “normalised enrichment score”, `PSIKRNLLNENDR [F11N]` is recorded as 0.0159.
For `PSIKKNLLNEFDR [R5K]`, “normalised enrichment score” read 0.179.
For `PSIKRNLLNEFRR [D12R]`, “normalised enrichment score” read 1.17.

Further values, each from its own experiment
The fold induction of `PhoQ, residues 284 288 289 292 302 303 TLASMF` is reported as 1.11 (PhoP, residues 12 14 15 18 19 TPLRH (Escherichia coli, UniProt P23836); Sort-seq, refers to: YFP reporter; E. coli; PhoQ-PhoP variant library, with: 10 µM Mg2+; baseline: high Mg2+ state, higher = stronger signaling).

Repeated from above (study 2):
For `GGCAGCAC`, the E-score was -0.19.
`ATAGCTTA` has an E-score of 0.203.
For `ACTCTACG`, the E-score was -0.096.
The E-score of `ATATGCGC` is reported as 0.174.
The E-score of `CCTGCGGA` is reported as -0.259.
The E-score of `ACGATTCG` is reported as -0.0354.
`ACGATGGC` has an E-score of -0.0309.
